Experimental data from different studies.
Lines come from different studies, so protocols differ. Values joined by “and” are separate records of one study, mostly repeats; a detail may differ. Numbers after ± are the reported error.

The Tmax of CN(C)C(=O)c1cc2cnc(Nc3ccc(N4CCNCC4)cn3)nc2n1C1CCCC1 is reported as 5.1 ± 1.2 h (human, expansion cohort, plasma; oral, 800 mg, day 14, added: gemcitabine 1000 mg/m^2).
CC(C)n1c(/C=C/C(O)CC(O)CC(=O)O)c(-c2ccc(F)cc2)c2ccccc21 (stereo not drawn) has a Tmax of 1.2 ± 0.62 h (human; oral, 20 mg, alone, control phase).
For COC(=O)N[C@@H](C)CNc1nccc(-c2cn(C(C)C)nc2-c2cc(Cl)cc(NS(C)(=O)=O)c2F)n1, the Tmax was 1.94 h (human patients, plasma; oral, 450 mg twice daily, day 14, steady state, median, added: binimetinib 45 mg once daily).
For CCNCCCNC/C=C\CNCCCNCC, the Tmax was 0.5 h (LC-MS/MS; human cancer patients, plasma; intravenous infusion 60 min, 50 mg, median, cycle 1).
With CC1(COc2ccc3c(c2)ncn3-c2ccc3cccc(N4CCC(N)CC4)c3n2)COC1 the Tmax was 4 h (human patients, recurrent/progressive HGG or DIPG, serum; oral, 100 mg/m^2, day 1, median).
For CNC(=O)c1ccc(-c2cnc3ncc(Cc4ccc5ncccc5c4)n3n2)cc1F, the Tmax was 1.5 h (human severe hepatic impairment NCI; oral, 200 mg single dose, median).
With CCn1cc(C(=O)N2CCOCC2)c(=O)c2cc(NC3Cc4ccccc4C3)cnc21 the Tmax was 0.75 h (human, fasted, plasma; oral, 600 mg single dose, tablet, median).
Cn1ncnc1[C@H]1c2n[nH]c(=O)c3cc(F)cc(c23)N[C@@H]1c1ccc(F)cc1 has a Tmax of 1 h (human patients, plasma; oral, 600 µg/m2 twice daily day 1, day 5, dose level DL6, median, added: temozolomide 55 mg/m2 daily days 2-6).
For CCCCCCCCCCCCCCCC(=O)N[C@@H](CCC(=O)NCCCC[C@@H]1NC(=O)[C@H]([C@@H](C)CC)NC(=O)[C@@H](NC(=O)[C@@H]2CCCN2C(=O)[C@H](Cc2ccccc2)NC(=O)[C@H](Cc2c[nH]cn2)NC(=O)[C@@H](NC(=O)[C@H](CC(=O)O)NC(=O)CC(C)C)[C@@H](C)O)CSSC[C@@H](C(=O)N[C@@H](CCCCN)C(N)=O)NC(=O)CNC(=O)[C@H](CCCCN)NC(=O)[C@H](CO)NC(=O)[C@H](CCCNC(=N)N)NC(=O)[C@@H]2CCCN2C(=O)[C@H](CCC(=O)O)NC(=O)[C@H](Cc2ccccc2)NC1=O)C(=O)O, the Tmax was 1 h (healthy human, plasma; subcutaneous, 20 mg, single dose, aqueous formulation, median).
For CCCCCCCOc1ccc(CCC(N)(CO)CO)cc1C(F)(F)F.Cl, the Tmax was 6 h (healthy human males, plasma; 0.5 mg, day 21, median).
For NC(CO)(CO)CCc1ccc(Sc2cccc(OCc3ccccc3)c2)cc1Cl, the Tmax was 4 h (human, fed, whole blood; oral, 3 mg, median, added: itraconazole 200 mg once daily).
COc1cc(C(=O)NC2CCN(C)CC2)c(F)cc1Nc1ncc(C(F)(F)F)c(Oc2cccc3c2C(=O)N(C)C3)n1 gave a Tmax of 2 h (human, Taiwanese, plasma; oral, 200 mg single dose, median).
O=C(c1cc(Cc2n[nH]c(=O)c3ccccc23)ccc1F)N1CCN(C(=O)C2CC2)CC1 gave a Tmax of 2 h (human, plasma; oral, 25 mg twice daily, cycle 1 day 1, dose level -1).
The Tmax of Cc1cc(Nc2cc3ncccc3c(N[C@@H]3C[C@H]4CC[C@@H](C3)N4CCC#N)n2)n[nH]1 is reported as 0.79 h (human, plasma; 30 mg single dose, median).
With Cc1nc(-c2ccc(OCC(C)C)c(C#N)c2)sc1C(=O)O the Tmax was 1.75 h (human, plasma; oral, 40 mg once daily, added: verinurad 10 mg).
The Tmax of Cc1cn(C(=O)c2c(-c3c(Cl)cc(Cl)cc3Cl)noc2C(C)(C)F)c2cccc(/C=C/C(=O)O)c12 is reported as 3.98 h (human patients; 1000 mg bid, cycle 1 day 1).
The Tmax of C#C[C@]1(COP(=O)(O)O)O[C@@H](n2cnc3c(N)nc(F)nc32)C[C@@H]1O is reported as 6 h (refers to: islatravir triphosphate; human, PBMC; oral, 30 mg single dose).
CC(C)NC(=O)COc1cccc(-c2nc(Nc3ccc4[nH]ncc4c3)c3ccccc3n2)c1 gave a Tmax of 2 h (human male, plasma; oral, 200 mg, day 5, fed, alone, median).
The Tmax of CC(C)(C(=O)NC1C2CC3CC1CC(C(N)=O)(C3)C2)N1CCN(c2ccc(C(F)(F)F)cn2)CC1 (stereo not drawn) is reported as 3.3 h (refers to: metabolite; human, CSF; oral, 50 mg once daily, 5 days, median).
With CC(F)(F)c1cc(F)ccc1-c1sc2cc(O)ccc2c1Oc1ccc(/C=C/C(=O)O)cc1 the Tmax was 2.5 h (human patients, serum; oral, 200 mg twice daily, cycle 1 day 28, without regard to food, median).
For COc1cc([C@@H]2[C@H]3CO[C@@]4(O)C(=O)[C@@H]2C=C([C@H]2Oc5cc(O)cc(O)c5C(=O)[C@@H]2O)[C@@H]34)ccc1O, the Tmax was 0.25 h (OATP1B1/1B3 humanized mice, plasma; oral gavage, 500 mg/kg silymarin, median).
CN(CC#N)C(=O)C[C@H](Nc1nc2ccccc2[nH]1)c1cccc(C(F)(F)F)c1 has a Tmax of 0.43 ± 0.09 h (human; intravenous infusion, 6 mg/kg, 1 mg/mL formulation).
C=CC(=O)NC1CCN(c2ncc3ncnc(Nc4ccc(Oc5ccc6c(c5)ncn6C)c(C)c4)c3n2)CC1 has a Tmax of 2 h (human, male, plasma; oral, 240 mg single dose, fasted, median).
The Tmax of Cc1noc(C)c1-c1cc(C(O)(c2ccccn2)c2ccccn2)c2nc(C3CC3)[nH]c2c1 is reported as 0.72 h (human patients, fasted, plasma; oral, 9 mg once daily, cycle 1 day 8).
With Cc1ncnc2c1ccn2[C@@H]1C[C@H](Oc2cc(C(F)F)c(F)c3c2CNCC3)[C@@H](O)[C@H]1O the Tmax was 0.5 h (human, plasma; 0.5 mg once daily).
C#C[C@]1(CO)O[C@@H](n2cnc3c(N)nc(F)nc32)C[C@@H]1O gave a Tmax of 0.5 h (human, plasma; oral, 100 mg, single dose, median).
With COc1cc(N2CCC(N3CCN(C)CC3)CC2)ccc1Nc1ncnc(Nc2ccccc2S(=O)(=O)C(C)C)n1 the Tmax was 2.95 h (LC-MS/MS; human, dose escalation, plasma; oral, 25 mg, day 1).
N#CCNC(=O)c1ccc(-c2ccnc(Nc3ccc(N4CCOCC4)cc3)n2)cc1 has a Tmax of 1.75 h (healthy human volunteers, plasma; oral, 200 mg single dose, day 1, fasted, given alone).
With CCOc1cc([C@@H](CS(C)(=O)=O)N2C(=O)c3cccc(NC(C)=O)c3C2=O)ccc1OC the Tmax was 2 h (healthy humans, plasma; oral, 30 mg).
CC(=O)N(C)[C@H]1CCN(C(=O)c2cnc3c(c2)C[C@](C)(c2ccc(F)cc2)N3)C1 gave a Tmax of 1.13 h (human, male, plasma; oral, 60 mg once daily, median).
The Tmax of COc1ncc(-c2nc3c(n2C(C)C)[C@H](c2ccc(Cl)cc2)N(c2cc(Cl)cn(C)c2=O)C3=O)c(OC)n1 is reported as 2.1 h (LC-MS/MS, noncompartmental; human, plasma; oral, 200 mg, C2D1, high-dose, median).
With CN1CC[C@@H](c2c(O)cc(O)c3c(=O)cc(-c4ccc(C(F)(F)F)cc4Cl)oc23)[C@@H]1CO the Tmax was roughly 4 h (human, plasma; oral).
For CC(C)[C@H](N)C(=O)NCCCS(=O)(=O)O, the Tmax was 0.5 h (median; human, plasma; oral, 171 mg once daily, day 1, fasted, capsule).
N#CCC1CCN(c2nc(Nc3ccc(N4CCC(O)CC4)cc3)c3c(=O)[nH]ncc3n2)CC1 has a Tmax of 2 h (LC-MS/MS; human, plasma; oral, 40 mg once daily, day 1, median).
With C#Cc1cccc(Nc2ncnc3cc(OCCOC)c(OCCOC)cc23)c1 the Tmax was 2.3 h (human, plasma; oral, 50 mg daily, day 7).
With CC(C)n1c(Nc2cccnc2)nc2cnc(Nc3ccc(N4CCN(C)CC4)cc3)nc21 the Tmax was 1 h (LC-MS/MS; human, male, plasma; oral, 100 mg, day 11, median, added: itraconazole 200 mg).
The Tmax of CC1(C)CC[C@]2(NC(=O)C(C)(F)F)CC[C@]3(C)[C@H](C(=O)C=C4[C@@]5(C)C=C(C#N)C(=O)C(C)(C)[C@@H]5CC[C@]43C)[C@@H]2C1 is reported as 14.3 h (median; human, plasma; oral, 150 mg single dose, given alone).
For Cc1cc(-c2nccc3c2ccn3CC(=O)Nc2ccc(-c3cnccn3)cn2)ccn1, the Tmax was 1 h (human, plasma; oral, 20 mg once daily, day 16, median).
With Cc1cc(-c2nnc(N)nc2-c2ccc(F)cc2)cc(Cl)n1 the Tmax was 2 h (human patients, plasma; oral, 200 mg capsule, single dose, median).
With CNC(=O)c1cc(Oc2ccc(NC(=O)Nc3ccc(Cl)c(C(F)(F)F)c3)cc2)ccn1 the Tmax was 2.6 h (human, plasma; oral, 400 mg daily, median, dose level -1, added: carboplatin AUC 3, gemcitabine 650 mg/m2).
The Tmax of Cc1ccc(C)c(OCCCC(C)(C)C(=O)O)c1 is reported as 1.3 h (human, plasma; oral, dose not given, after lopinavir/ritonavir, geometric mean, added: lopinavir/ritonavir).
C#C[C@]1(COP(=O)(O)OP(=O)(O)O)O[C@@H](n2cnc3c(N)nc(F)nc32)C[C@@H]1O gave a Tmax of 12 h (refers to: islatravir triphosphate; human, PBMC; oral, 30 mg single dose).
With N#Cc1cc(NC(=O)[C@H]2c3ccccc3C(=O)N(CC(F)(F)F)[C@@H]2c2cccnc2)ccc1F the Tmax was 1.6 h (human, plasma; oral, 1200 mg, median).
For Cn1cncc1[C@@](N)(c1ccc(Cl)cc1)c1ccc2c(c1)c(-c1cccc(Cl)c1)cc(=O)n2C, the Tmax was 1.65 h and 3.02 h and 2.97 h and 3.25 h and 2 h (human, plasma; oral, 200 mg/m^2).
C[C@H](Oc1ccc(Br)cc1-c1ccon1)C(=O)O gave a Tmax of 2.05 h (LC-MS/MS, non-compartmental; human, plasma; 400 mg once daily, day 1, multiple ascending dose, median).
CC(C)(C#N)c1cc(Cn2cncn2)cc(C(C)(C)C#N)c1 has a Tmax of 1 h (human; 150 mg).
CO[C@@H]1[C@H](OC(=O)N2CC(CCN3CCOCC3)C2)CC[C@]2(CO2)[C@H]1[C@@]1(C)O[C@@H]1CC=C(C)C gave a Tmax of 0.5 h (humans, plasma; subcutaneous, 0.2 mg twice weekly, first dose).
For COC(=O)N[C@@H](C)CNc1nccc(-c2cn(C(C)C)nc2-c2cc(Cl)cc(NS(C)(=O)=O)c2F)n1, the Tmax was 1.5 h (human, plasma; oral, 50 mg, added: diltiazem 240 mg once daily; median).
CN(C)CCCNC(=O)/C(=C/CCCCC(=O)NO)COc1cccc2ccccc12 gave a Tmax of 0.52 h (human; iv, 312.5 mg/m2, day 1, single dose, mean).
For COc1nnc2ccc(N3CCC(c4ccc(OCCN5CCN(C)C(=O)[C@H]5C)cc4)CC3)nn12, the Tmax was 1 h (human, plasma; oral, 30 mg once daily, single dose, monotherapy).
With CCn1c(=O)c(-c2cc(NC(=O)Nc3ccccc3)c(F)cc2Br)cc2cnc(NC)cc21 the Tmax was 6 h (human, plasma; oral, 150 mg once daily, steady state).
For C[C@H]1[C@H](OC(=O)CCC(=O)O)O[C@@H]2O[C@@]3(C)CC[C@H]4[C@H](C)CC[C@@H]1[C@@]24OO3, the Tmax was 0.54 h (human, both sexes, plasma; oral, dose not given, non-fixed combination).
CC(C)n1nc(-c2ccc3oc(N)nc3c2)c2c(N)ncnc21 has a Tmax of 0.47 h (human patients, plasma; oral, 20 mg once weekly, cycle 1 day 1, dose escalation).
For Cl.O=C(NC1CCOCC1)c1csc([C@@H]2C[C@H]2NCC2CC2)c1, the Tmax was 3 h (human, fed, plasma; oral, 30 mg single dose, median, high-fat breakfast).

Excerpt of the above:
For NC(CO)(CO)CCc1ccc(Sc2cccc(OCc3ccccc3)c2)cc1Cl, the Tmax was 4 h (human, fed, whole blood; oral, 3 mg, median, added: itraconazole 200 mg once daily).
COc1cc(C(=O)NC2CCN(C)CC2)c(F)cc1Nc1ncc(C(F)(F)F)c(Oc2cccc3c2C(=O)N(C)C3)n1 gave a Tmax of 2 h (human, Taiwanese, plasma; oral, 200 mg single dose, median).
O=C(c1cc(Cc2n[nH]c(=O)c3ccccc23)ccc1F)N1CCN(C(=O)C2CC2)CC1 gave a Tmax of 2 h (human, plasma; oral, 25 mg twice daily, cycle 1 day 1, dose level -1).
The Tmax of Cc1cc(Nc2cc3ncccc3c(N[C@@H]3C[C@H]4CC[C@@H](C3)N4CCC#N)n2)n[nH]1 is reported as 0.79 h (human, plasma; 30 mg single dose, median).
With Cc1nc(-c2ccc(OCC(C)C)c(C#N)c2)sc1C(=O)O the Tmax was 1.75 h (human, plasma; oral, 40 mg once daily, added: verinurad 10 mg).
The Tmax of Cc1cn(C(=O)c2c(-c3c(Cl)cc(Cl)cc3Cl)noc2C(C)(C)F)c2cccc(/C=C/C(=O)O)c12 is reported as 3.98 h (human patients; 1000 mg bid, cycle 1 day 1).
The Tmax of C#C[C@]1(COP(=O)(O)O)O[C@@H](n2cnc3c(N)nc(F)nc32)C[C@@H]1O is reported as 6 h (refers to: islatravir triphosphate; human, PBMC; oral, 30 mg single dose).
CC(C)NC(=O)COc1cccc(-c2nc(Nc3ccc4[nH]ncc4c3)c3ccccc3n2)c1 gave a Tmax of 2 h (human male, plasma; oral, 200 mg, day 5, fed, alone, median).
The Tmax of CC(C)(C(=O)NC1C2CC3CC1CC(C(N)=O)(C3)C2)N1CCN(c2ccc(C(F)(F)F)cn2)CC1 (stereo not drawn) is reported as 3.3 h (refers to: metabolite; human, CSF; oral, 50 mg once daily, 5 days, median).
